Results from different studies.
Compare with care: the assays were run in different laboratories. Several values in a cell are separate wells, animals, samples, runs or records. ± marks the error that the study gave.

| Compound | test | test system | conditions | how to read | quantity | result |
| --- | --- | --- | --- | --- | --- | --- |
| CSCC[C@H](NC(=O)[C@@H](NC(=O)[C@H](CC(C)C)NC(=O)[C@@H](NC(=O)[C@H](Cc1c[nH]cn1)NC(=O)CCCCCNC(=O)[C@H](CCCNC(=N)N)NC(=O)[C@H](CCCNC(=N)N)NC(=O)[C@H](CCCNC(=N)N)NC(=O)[C@H](CCC(N)=O)NC(=O)[C@H](CCCNC(=N)N)NC(=O)[C@H](CCCNC(=N)N)NC(=O)[C@H](CCCCN)NC(=O)[C@H](CCCCN)NC(=O)[C@H](CCCNC(=N)N)NC(=O)CNC(=O)[C@@H](N)Cc1ccc(O)cc1)C(C)C)C(C)C)C(=O)N[C@@H](CS)C(=O)N[C@@H](C)C(=O)N[C@H](C(N)=O)[C@@H](C)O | – | C57BL/6J mice | Alzet osmotic pump, 3 mg/kg, 8 weeks | – | alkaline phosphatase | 40 U/L and 73 U/L and 75 U/L |
| CC(C)C[C@@H](NC(=O)[C@@H](CCCNC(=N)N)NC(=O)[C@@H](Cc1c[nH]cn1)NC(=O)[C@@H](Cc1c[nH]c2ccccc12)NC(=O)[C@@H](Cc1c[nH]cn1)NC(=O)[C@@H](Cc1ccccc1)NC(=O)[C@H](NC(=O)[C@@H](Cc1ccc(O)cc1)NC(=O)CNC(=O)CNC(=O)CCOCCOCCOCCNC(=O)CN1CCN(CC(=O)O)CCN(CC(=O)O)CC1)[C@H](C)O)C(=O)N[C@H](CC(N)=O)C(=O)N1CCC[C@@H]1C(=O)O [gallium-68 labelled] | OLINDA/EXM | adult male human, Gallbladder wall | extrapolated from C57BL/6 mice | – | organ absorbed dose | 0.00979 ± 0.00011 mSv/MBq |
| CSCC[C@H](N)C(=O)N[C@@H](C)C(=O)N[C@@H](CCCNC(=N)N)C(=O)N[C@@H](CCCNC(=N)N)C(=O)N[C@@H](CC(=O)O)C(=O)N[C@@H](CCCCN)C(=O)N[C@H](C(=O)N[C@@H](CC(=O)O)C(=O)N[C@@H](Cc1ccccc1)C(=O)N[C@@H](C)C(=O)N[C@@H](CCCNC(=N)N)C(=O)N[C@@H](CCCNC(=N)N)C(=O)N[C@@H](CCCNC(=N)N)C(=O)N[C@@H](CCCNC(=N)N)C(=O)NCCCCCC(=O)NCCCCC(NC(=O)CCCCCNC(=O)[C@H](CCCNC(=N)N)NC(=O)[C@H](CCCNC(=N)N)NC(=O)[C@H](CCCNC(=N)N)NC(=O)[C@H](CCCNC(=N)N)NC(=O)[C@H](C)NC(=O)[C@H](Cc1ccccc1)NC(=O)[C@H](CC(=O)O)NC(=O)[C@@H](NC(=O)[C@H](CCCCN)NC(=O)[C@H](CC(=O)O)NC(=O)[C@H](CCCNC(=N)N)NC(=O)[C@H](CCCNC(=N)N)NC(=O)[C@H](C)NC(=O)[C@@H](N)CCSC)[C@@H](C)O)C(=O)NCCCCC(NC(=O)C(CCCCNC(=O)CCCCCNC(=O)[C@H](CCCNC(=N)N)NC(=O)[C@H](CCCNC(=N)N)NC(=O)[C@H](CCCNC(=N)N)NC(=O)[C@H](CCCNC(=N)N)NC(=O)[C@H](C)NC(=O)[C@H](Cc1ccccc1)NC(=O)[C@H](CC(=O)O)NC(=O)[C@@H](NC(=O)[C@H](CCCCN)NC(=O)[C@H](CC(=O)O)NC(=O)[C@H](CCCNC(=N)N)NC(=O)[C@H](CCCNC(=N)N)NC(=O)[C@H](C)NC(=O)[C@@H](N)CCSC)[C@@H](C)O)NC(=O)CCCCCNC(=O)[C@H](CCCNC(=N)N)NC(=O)[C@H](CCCNC(=N)N)NC(=O)[C@H](CCCNC(=N)N)NC(=O)[C@H](CCCNC(=N)N)NC(=O)[C@H](C)NC(=O)[C@H](Cc1ccccc1)NC(=O)[C@H](CC(=O)O)NC(=O)[C@@H](NC(=O)[C@H](CCCCN)NC(=O)[C@H](CC(=O)O)NC(=O)[C@H](CCCNC(=N)N)NC(=O)[C@H](CCCNC(=N)N)NC(=O)[C@H](C)NC(=O)[C@@H](N)CCSC)[C@@H](C)O)C(N)=O)[C@@H](C)O (some centres unmarked) | – | C57BL/6 mouse female, lungs | dose not given, 3 h | relative to: total | tissue distribution | 1.21% and 2.74% and 1.76% |
| C/C(=N\OCCCN1CCCCC1)c1ccc(C(F)(F)F)cc1 | – | mouse, plasma | oral, 100 mg/kg once daily, day 7 | – | AUC(0-t) | 12.1 ± 0.597 µg·h/mL |
| CC(C)[C@@H]1NC(=O)CNC(=O)[C@H](CC(N)=O)NC(=O)[C@H](CCCNC(=N)N)NC(=O)[C@H](Cc2ccc(O)cc2)NC(=O)[C@H](C(C)C)NC(=O)[C@@H](NC(=O)[C@@H](NC(=O)[C@H](CC(N)=O)NC(=O)[C@H](Cc2c[nH]c3ccccc23)NC(=O)[C@H](C)NC(=O)[C@H](Cc2ccccc2)NC(=O)CNC(=O)[C@H](CCCCN)NC(=O)[C@H](Cc2ccccc2)NC(=O)[C@H](Cc2ccccc2)NC(=O)[C@H](CCCCN)NC(=O)OCC2c3ccccc3-c3ccccc32)C(C)C)CSSC[C@@H](C(=O)N[C@@H](Cc2c[nH]cn2)C(=O)N[C@@H](CCCNC(=N)N)C(=O)N[C@@H](CCCNC(=N)N)C(=O)N[C@@H](C)C(=O)N[C@@H](CC(N)=O)C(N)=O)NC(=O)[C@H](C(C)C)NC(=O)[C@H](CCCNC(=N)N)NC1=O | – | ICR mouse, blood | intramammary, 5 mg/kg, day 5, 3 d dosing | – | creatinine | 86.7 ± 1.74 µmol/L |
| COCC12CCC(OC)C34C5CC6(O)C(OC)C(O)C(O)(C5C6OC(=O)c5ccccc5)C(C(OC)C13)C4N(C)C2 (centres unmarked) | – | Sprague-Dawley rat, plasma | oral, dose not given, in PCW extract | – | MRT(0-t) | 4.81 ± 0.163 h |
| O=C1NC2(CC2)COc2ncc(F)cc2[C@H]2COCCN2c2ccn3ncc1c3n2 | – | Sprague-Dawley rat, male, blood | oral, 5 mg/kg/day, 4 weeks, end of recovery, subacute toxicity | – | lymphocyte percentage | 85.7 ± 0.9% |
| CC[C@H](C)[C@H](NC(=O)[C@H](CCCCN)NC(=O)CNC(=O)[C@H](CC(C)C)NC(=O)[C@H](Cc1ccccc1)NC(=O)[C@H](CCCCN)NC(=O)[C@H](CO)NC(=O)[C@H](Cc1ccccc1)NC(=O)[C@H](Cc1c[nH]c2ccccc12)NC(=O)[C@H](CCC(N)=O)NC(=O)[C@@H](NC(=O)[C@H](Cc1ccccc1)NC(=O)CCCCCNC(=O)CN1CCN(CC(=O)O)CCN(CC(=O)O)CCN(CC(=O)O)CC1)C(C)C)C(=O)N[C@@H](CCC(=O)O)C(=O)N1CCC[C@H]1C(=O)N[C@@H](CC(=O)O)C(=O)N[C@H](C(=O)N[C@@H](CO)C(=O)N[C@@H](CCC(N)=O)C(=O)N[C@H](C(=O)N[C@@H](CCC(N)=O)C(=O)N[C@@H](CC(=O)O)C(=O)N1CCC[C@H]1C(=O)N[C@@H](CC(N)=O)C(=O)N[C@@H](CC(=O)O)C(=O)N[C@@H](CCC(N)=O)C(=O)N[C@@H](Cc1ccc(O)cc1)C(=O)N[C@@H](CCC(=O)O)C(=O)N1CCC[C@H]1C(=O)N[C@@H](Cc1ccccc1)C(=O)O)C(C)C)C(C)C [copper-64 labelled] | dynamic PET | mouse, CT26 tumour, checkpoint inhibitor-treated, tumour | intravenous, 100 µCi/mouse, 1260 s | – | SUVmean | 4.86 SUV |
| CCN(CC)CCOc1ccc(-c2nnn(Cc3ccc(OC)cc3)c2N)cc1 | – | beagle dog | oral, at least 40 mg/kg | – | diastolic blood pressure increase | ≤ 14% |
| CN1Cc2cc(Cl)ccc2-n2c(nnc2C2CCN(c3cccc([18F])n3)CC2)C1 | – | C57BL/6 mouse male, blood | intravenous, 3.7 MBq, 30 min | – | tissue uptake | 3.01 ± 0.5 %ID/g |
| CCCC[C@H]1C(=O)N(C)[C@@H](CCCC)C(=O)N[C@@H](CCCNC(=O)CN2CCN(CC(=O)O)CCN(CC(=O)O)CCN(CC(=O)O)CC2)C(=O)N[C@H](C(=O)NCC(N)=O)CSCC(=O)N[C@@H](Cc2ccc(O)cc2)C(=O)N(C)[C@@H](C)C(=O)N[C@@H](CC(N)=O)C(=O)N2CCC[C@H]2C(=O)N[C@@H](Cc2c[nH]cn2)C(=O)N[C@@H](CC(C)C)C(=O)N(C)CC(=O)N[C@@H](Cc2c[nH]c3ccccc23)C(=O)N[C@@H](CO)C(=O)N[C@@H](Cc2c[nH]c3ccccc23)C(=O)N1C [gallium-68 labelled] | radio-HPLC | Kunming mice, blood | intravenous, 15 min | – | radiochemical purity | 95.9% |
| CC(CCC(=O)NCC(=O)O)C1CCC2C3C(O)CC4CC(OC5OC(C(=O)O)C(O)C(O)C5O)CCC4(C)C3CCC12C (centres unmarked) | – | human women | dose not given, SLCO1B1 *14/*14 | – | plasma concentration | 4.44 ng/mL |
| CC(=O)NCCCC[C@@H]1NC(=O)[C@H](Cc2c[nH]c3c(C)cccc23)NC(=O)[C@H]([C@@H](C)O)NC(=O)[C@H](CC(N)=O)NC(=O)[C@@H](NC(C)=O)C(C)(C)SSC(C)(C)[C@@H](C(=O)N[C@@H](Cc2ccc(OCCN)cc2)C(=O)N[C@@H](Cc2ccc3ccccc3c2)C(=O)NC2(C(=O)N[C@@H](CCC(=O)O)C(=O)N[C@@H](CC(N)=O)C(=O)N[C@@H](Cc3cccnc3)C(=O)N(C)CC(N)=O)CCOCC2)NC1=O | – | human, plasma | oral, 10 mg, single dose, healthy volunteers | – | CL/F | 7430 L/h |
| CCCCC[C@@H]1OC(=O)[C@@H](C)N(C)C(=O)[C@H](CCCCC)N(C)C(=O)[C@@H](C)N(C)C(=O)[C@H](CCCCC)N(C)C(=O)[C@@H](C)N(C)C(=O)[C@H](CCCCC)OC(=O)[C@@H](C)N(C)C1=O | PAMPA | – | 500 µM, pH 7.4, UV/ELSD/MS detection | – | log Papp | -5.35 |
| C#Cc1c(F)ccc2cc(O)cc(-c3ncc4c(N5CC6CCC(C5)N6C(=O)OC(C)OC(=O)c5cccc6ccccc56)nc(OC[C@@]56CCCN5C[C@H](F)C6)nc4c3F)c12 (some centres unmarked) | refers to: prodrug | mouse whole blood | 1 µM | – | t1/2 | 0.825 h |
| CCCCCCCCCCCCCCCC(=O)N[C@@H](CCC(=O)NCCOCCOCCC(=O)NCCOCCOCCC(=O)NCCCC[C@H](NC(=O)[C@H](CC(=O)O)NC(=O)[C@H](CC(C)C)NC(=O)[C@H](Cc1ccc(O)cc1)NC(=O)[C@H](CCCCN)NC(=O)[C@H](CO)NC(=O)[C@H](Cc1ccc(O)cc1)NC(=O)[C@H](CC(=O)O)NC(=O)[C@H](CO)NC(=O)[C@@H](NC(=O)[C@H](Cc1ccccc1)NC(=O)[C@@H](NC(=O)CNC(=O)[C@H](CCC(N)=O)NC(=O)[C@@H](CO)NC(=O)[C@@H](N)Cc1c[nH]cn1)[C@@H](C)O)[C@@H](C)O)C(=O)N[C@@H](CCCNC(=N)N)C(=O)N[C@@H](CCCNC(=N)N)C(=O)N[C@@H](C)C(=O)N[C@@H](CCC(N)=O)C(=O)N[C@@H](CC(=O)O)C(=O)N[C@@H](Cc1ccccc1)C(=O)N[C@H](C(=O)N[C@@H](CCC(N)=O)C(=O)N[C@@H](Cc1c[nH]c2ccccc12)C(=O)N[C@@H](CC(C)C)C(=O)N[C@@H](CC(C)C)C(=O)N[C@@H](CC(N)=O)C(=O)N[C@H](C(=O)NCC(=O)NCC(=O)N1CCC[C@H]1C(=O)N[C@@H](CO)C(=O)N[C@@H](CO)C(=O)NCC(=O)N[C@@H](C)C(=O)N1CCC[C@H]1C(=O)N1CCC[C@H]1C(=O)N1CCC[C@H]1C(=O)N[C@@H](CO)C(N)=O)[C@@H](C)O)C(C)C)C(=O)O | – | female rhesus monkeys | 60 µg/kg, day 28 | – | AUC(0-t) | 0.841 µg·h/mL |
| O=C(O)CC[C@H](NC(=O)[C@H](CCC(=O)O)NC(=O)[C@H](CCC(=O)O)NC(=O)[C@H](CCC(=O)O)NC(=O)[C@H](CCC(=O)O)NC(=O)CNC(=O)[C@H](CCC(=O)O)NC(=O)CNC(=O)[C@H](CCC(=O)O)NC(=O)[C@@H](Cc1ccccc1)NC(=O)[C@@H](Cc1ccccc1)NC(=O)Cc1ccc2ccccc2c1)C(=O)O | TEM | aqueous solution | 500 µM, pH 7 | – | nanoparticle diameter | 13 ± 2 nm |

Excerpt of the above:
| Compound | test | test system | conditions | how to read | quantity | result |
| --- | --- | --- | --- | --- | --- | --- |
| CCN(CC)CCOc1ccc(-c2nnn(Cc3ccc(OC)cc3)c2N)cc1 | – | beagle dog | oral, at least 40 mg/kg | – | diastolic blood pressure increase | ≤ 14% |
